Assay results pooled from the literature.
Several values in a cell are separate wells, animals, samples, runs or records. Numbers after ± are the reported error.
NT5E membrane-bound form: 5'-nucleotidase, membrane-bound form (NT5E, Homo sapiens, UniProt P21589)
CSNK1E: Casein kinase I isoform epsilon (CSNK1E, Homo sapiens, UniProt P49674)
HTR6: 5-hydroxytryptamine receptor 6 (HTR6, Homo sapiens, UniProt P50406)
KCNJ2: Inward rectifier potassium channel 2 (KCNJ2, Homo sapiens, UniProt P63252)
MAP3K3: Mitogen-activated protein kinase kinase kinase 3 (MAP3K3, Homo sapiens, UniProt Q99759)
ADORA2A: Adenosine receptor A2a (ADORA2A, Homo sapiens, UniProt P29274)
SIRT5: NAD-dependent protein deacylase sirtuin-5, mitochondrial (SIRT5, Homo sapiens, UniProt Q9NXA8)

| Structure (SMILES) | target | assay | test system | setting | inhibition |
| --- | --- | --- | --- | --- | --- |
| Cc1cc(F)cc2c(CCC(=O)N[C@@H]3C(=O)NC[C@H]3O)c(-c3ccc(F)cc3)[nH]c12 | phosphodiesterase 3 | enzyme activity | – | 10 µM | -8% |
| COc1ccc(S(=O)(=O)N(CC(=O)NO)CC(C)C)cc1 | Stromelysin-2 (Homo sapiens, UniProt P09238) | inhibitor | – | 0.1 µM | 16 ± 0.805% |
| Cc1cc(C)c2c(N)c(C(=O)Nc3cccnc3)sc2n1 | NT5E membrane-bound form | CD73 activity, inhibitor, malachite green phosphate | MDA-MB-231 | 100 µM, with: 200 µM AMP | 16 ± 6% |
| Fc1ccc(-c2c(-c3ccncc3)ncn2-c2ccc3ccccc3c2)cc1 | CSNK1E | inhibitor | – | 1 µM | 59% |
| COc1ccccc1N1CCN(CCCCN2CCc3ccccc3C2=O)CC1 | HTR6 | radioligand binding | – | concentration not given, with: [3H]LSD | 14.8% |
| CC(C)c1noc2ncc(C(=O)c3ccccc3O)cc12 | KCNJ2 | ion current, whole-cell patch-clamp | – | 10 µM, hKir2.1 | 2.22% |
| Cc1cccc(NC(=O)CSc2nc(-c3ccccc3)cc(C)c2C#N)n1 | NT5E membrane-bound form | CD73 activity, inhibitor, malachite green phosphate | MDA-MB-231 | 100 µM, with: 200 µM AMP | 27 ± 8% |
| O=C(NO)c1ccc(CN2CCCCc3ccccc32)c(F)c1 | HTR6 | radioligand binding, radioligand displacement | – | 10 µM, mean of replicates | 27.8% |
| COc1c(C#N)ccnc1N1C2CCC1CN(C(=O)c1cccnc1-n1cccn1)C2 | α1 | binding | – | 10 µM | -6.8% |
| COc1cccc(F)c1Cn1cnc(-c2ccc(F)cc2)c1-c1ccncc1 | CSNK1E | inhibitor | – | 1 µM | 82% |
| COc1cc(OS(C)(=O)=O)c2c(c1)[C@H]1O[C@@H]1C[C@H](OS(C)(=O)=O)[C@H](OS(C)(=O)=O)C(=O)/C=C/C[C@H](C)OC2=O | Mitogen-activated protein kinase kinase kinase 7, with TAB1 (MAP3K7, Homo sapiens, UniProt O43318) | kinase activity, Kinase-Glo luminescence | – | concentration not given | inactive |
| CCOc1cc(-c2nncn2C)ccc1Nc1ncc2cc(C)nc(NCC(C)(C)C)c2n1 | MAPK12 (p38 beta) | Z'-LYTE | – | 1 µM | 36% |
| Cn1cc(-c2cnc3ccc(NC(=O)Nc4ccc(F)c(Br)c4)cc3n2)cn1 | MAP3K3 | kinase binding, KiNativ profiling, measured: Lys1 peptide | PANC-1 lysate | 7.5 µM | 21.1% |
| c1ccc(OC[C@@H]2CN(CCN3CCc4ccccc43)CCO2)cc1 | HTR6 | radioligand binding | – | concentration not given, with: [3H]LSD | 24.2% |
| NC/C(=C\F)COc1cccc(Cn2c(=S)[nH]c(=O)c3[nH]cnc32)c1 | Myeloperoxidase (MPO, Homo sapiens, UniProt P05164) | enzyme activity | – | 0.0041 µM | 28% |
| O=C1NC(=O)C2(N1)c1ccccc1-c1ccccc12 | GABA-A receptor alpha-1/beta-3 (GABRA1/GABRB3, Homo sapiens, UniProt P14867+P28472) | – | – | concentration not given, α1β3 receptor | 36% |
| Nc1c(C(=O)Nc2nccs2)sc2nc(-c3ccccc3)cc(C(F)(F)F)c12 | NT5E membrane-bound form | CD73 activity, inhibitor, malachite green phosphate | MDA-MB-231 | 100 µM, with: 200 µM AMP | 16 ± 7% |
| Clc1cncc(OC[C@@H]2CN(CCN3CCc4ccccc43)CCO2)c1 | HTR6 | radioligand binding | – | concentration not given, with: [3H]LSD | 10.6% |
| Cc1cc2c(cc1N1C(=O)c3cccc4c(CCCO)ccc(c34)C1=O)n(C)c(=O)n2C (racemic) | CECR2 (Homo sapiens, UniProt Q9BXF3) | binding, BROMOscan binding | – | 1000 nM | 15% |
| O=C(Cn1nc(C(F)(F)F)c2c1CCCC2)N1CCCc2ccccc21 | Inward rectifier potassium channel (Aedes aegypti, UniProt L0EQ40) | inward K+ current, two-electrode voltage clamp | Xenopus oocytes | 25 µM, pH 7.5, holding -140 mV, with: K+ 25 mM | ~12% |
| CN1CCN(c2cc(-c3ccncc3)c(-c3ccc4ccccc4c3)nn2)CC1 | CCR1 (Homo sapiens, UniProt P32246) | antagonist, FLIPR | – | 10 µM | 4.3% |
| Cc1cccc(NC(=O)c2sc3nc(C)cc(C(F)(F)F)c3c2N)n1 | NT5E membrane-bound form | CD73 activity, inhibitor, malachite green phosphate | MDA-MB-231 | 100 µM, with: 200 µM AMP | 33 ± 9% |
| C[C@H]1[C@H](OC(=O)CCC(=O)O)O[C@@H]2O[C@@]3(C)CC[C@H]4[C@H](C)CC[C@@H]1[C@@]24OO3 | Non-structural polyprotein pORF1, RNA-dependent RNA polymerase (Hepatitis E virus genotype 1, UniProt P33424) | polymerase activity, colorimetric | – | 39 µM | 38.9% |
| c1cncc(OC[C@@H]2CN(CCN3CCc4ccccc43)CCO2)c1 | HTR6 | radioligand binding | – | concentration not given, with: [3H]LSD | -10.6% |

| Structure (SMILES) | target | assay | test system | setting | inhibition |
| --- | --- | --- | --- | --- | --- |
| Cc1ccc(C(=O)Nc2ccc3ccccc3c2)o1 | KCNJ2 | ion current, whole-cell patch-clamp | – | 10 µM, hKir2.1 | 4.76% |
| O=C(Nc1nc2ccccc2[nH]1)c1ccccc1O | ADORA2A | – | – | 30 µM | 46 ± 5% |
| COCCOCCOCCNC(=O)c1sc2nc(C)cc(C(F)(F)F)c2c1N | NT5E membrane-bound form | CD73 activity, inhibitor, malachite green phosphate | MDA-MB-231 | 100 µM, with: 200 µM AMP | 3 ± 3% |
| COc1cc(C(=O)NS(=O)(=O)c2ccccc2C)ccc1Cc1cn(C)c2ccc(NC(=O)OC3CCCC3)cc12 | Volume-regulated anion channel subunit LRRC8C, part LRRC8A IL1 chimera (LRRC8C, Homo sapiens, UniProt Q8TDW0, E6A) | ion current, inhibitor, whole-cell patch clamp | HCT LRRC8-/- cells | 30 µM, +100 mV | 96.3% and 99.3% and 95.6% and 97.9% and 93.6% and 93.4% |
| CN(C(=O)n1cnc(-c2ccc[n+]([O-])c2)c1)C1CCCCC1 | AGTR1 (Homo sapiens, UniProt P30556) | – | – | 10 µM | 2.6% |
| COc1cccc(CNC(=O)C#Cc2cn(Cc3ccc(C(=O)O)cc3)c(=O)[nH]c2=O)c1 | Collagenase 3 (MMP13, Homo sapiens, UniProt P45452) | – | – | 6.5 µM | 100 ± 1% |
| CCN1CCN(Cc2ccc(NC(=O)c3ccc(C)c(/C=C/c4cnc5[nH]ccc5c4OC)c3)cc2C(F)(F)F)CC1 | ULK1 (Homo sapiens, UniProt O75385) | – | A-375 | concentration not given | -25.7% |
| CC[C@@H]1[C@H](F)C(=O)N[C@@H]1COc1nccc2cc(C(N)=O)c(OC)cc12 | PRKD2 (Homo sapiens, UniProt Q9BZL6) | ATP-site probe binding, ActivX profiling, measured: PKD2 | THP-1 cell lysate | 0.04 mM, Lys1 site | 12.3% |
| O=C(NC1CCC1)[C@H](Cc1c[nH]c2ccccc12)NC(=O)[C@H](CCCCNC(=S)NCCc1cc(O)no1)NS(=O)(=O)c1cccc(F)c1 | SIRT5 | enzyme activity, inhibitor | – | 100 µM | 69% |
| Fc1ccc(-c2c(-c3ccncc3)ncn2-c2ccccc2)cc1 | CSNK1E | inhibitor | – | 1 µM | 20% |
| COc1cc(-c2cc(C(C)=O)n3ccccc23)cc(OC)c1Cn1ccnc1 | BAZ2B (Homo sapiens, UniProt Q9UIF8) | binding, inhibitor, AlphaScreen | – | 1 µM | -41.3% |
| Nc1nn(-c2ccccc2)nc1C(=O)O | ADORA2A | – | – | 30 µM | 5 ± 4% |
| Cn1c(CNC(=S)NCCCC[C@H](NS(=O)(=O)c2cccc(F)c2)C(=O)N[C@@H](Cc2c[nH]c3ccccc23)C(=O)NC2CCC2)n[nH]c1=S | SIRT5 | enzyme activity, inhibitor | – | 100 µM | 14% |
| O=C(Nc1cccc2c(=O)cc(-c3nnn[nH]3)oc12)c1ccc(OCCCCc2ccccc2)cc1 | Volume-regulated anion channel subunit LRRC8C, part LRRC8A IL1 chimera (LRRC8C, Homo sapiens, UniProt Q8TDW0, Y126F) | ion current, inhibitor, whole-cell patch clamp | HCT LRRC8-/- cells | 1 µM, -100 mV | 42.8% and 59.8% and 58.6% and 53.3% |
| O=C(CN1CCO[C@H](COc2cccc(Cl)c2)C1)N1CCc2ccccc21 | HTR6 | radioligand binding | – | concentration not given, with: [3H]LSD | 17.3% |
| CCS(=O)(=O)c1nc(S(=O)(=O)c2ccccc2Cl)c(N2CCN(C)C(=O)[C@H]2C)s1 | HTR6 | – | – | 10 µM | 18% |
| Cc1cc(-c2ccccc2)c(C#N)c(SCC(=O)Nc2nccs2)n1 | NT5E membrane-bound form | CD73 activity, inhibitor, malachite green phosphate | MDA-MB-231 | 100 µM, with: 200 µM AMP | 26 ± 8% |
| CCc1cccc2c3c([nH]c12)C(CC)(CC(=O)O)OCC3 (centres unmarked) | PTGS2 (Homo sapiens, UniProt P35354) | – | – | 12.2 µg/mL | 97.7% |
| CC/C(=N\NC(=O)NCc1cccc(O)c1)c1ccc(O)c(C)c1O | MAP3K3 | kinase activity | – | 0.1 µM | 3.7% |
| COc1cccc(OC[C@H]2CN(CCN3CCc4ccccc43)CCO2)c1 | HTR6 | radioligand binding | – | concentration not given, with: [3H]LSD | 11.6% |
| CNc1cc(Oc2cc(C(=O)Nc3cc(N4CCN(C)CC4)cc(C(F)(F)F)c3)ccc2C)ncn1 | SLK (Homo sapiens, UniProt Q9H2G2) | kinase activity | – | 1 µM | -12.8% |
| Nc1c(C(=O)Nc2cccnc2)sc2nc(-c3ccccc3)cc(C(F)(F)F)c12 | NT5E membrane-bound form | CD73 activity, inhibitor, malachite green phosphate | MDA-MB-231 | 100 µM, with: 200 µM AMP | 20 ± 3% |
| Cc1nn(-c2nc3c(F)cc(F)cc3s2)c(O)c1C(c1cccc(C(F)(F)F)c1)c1c(C)nn(-c2nc3c(F)cc(F)cc3s2)c1O | Cyclic GMP-AMP synthase, catalytic domain; with DNA (CGAS, Homo sapiens, UniProt Q8N884) | cGAS phase separation, inhibitor | – | 50 µM | 95.6% |

A few entries again:
| Structure (SMILES) | target | assay | test system | setting | inhibition |
| --- | --- | --- | --- | --- | --- |
| COc1ccc(S(=O)(=O)N(CC(=O)NO)CC(C)C)cc1 | Stromelysin-2 (Homo sapiens, UniProt P09238) | inhibitor | – | 0.1 µM | 16 ± 0.805% |
| Cc1cc(C)c2c(N)c(C(=O)Nc3cccnc3)sc2n1 | NT5E membrane-bound form | CD73 activity, inhibitor, malachite green phosphate | MDA-MB-231 | 100 µM, with: 200 µM AMP | 16 ± 6% |
| Fc1ccc(-c2c(-c3ccncc3)ncn2-c2ccc3ccccc3c2)cc1 | CSNK1E | inhibitor | – | 1 µM | 59% |
| COc1ccccc1N1CCN(CCCCN2CCc3ccccc3C2=O)CC1 | HTR6 | radioligand binding | – | concentration not given, with: [3H]LSD | 14.8% |
| CC(C)c1noc2ncc(C(=O)c3ccccc3O)cc12 | KCNJ2 | ion current, whole-cell patch-clamp | – | 10 µM, hKir2.1 | 2.22% |
| Cc1cccc(NC(=O)CSc2nc(-c3ccccc3)cc(C)c2C#N)n1 | NT5E membrane-bound form | CD73 activity, inhibitor, malachite green phosphate | MDA-MB-231 | 100 µM, with: 200 µM AMP | 27 ± 8% |
| O=C(NO)c1ccc(CN2CCCCc3ccccc32)c(F)c1 | HTR6 | radioligand binding, radioligand displacement | – | 10 µM, mean of replicates | 27.8% |
| COc1c(C#N)ccnc1N1C2CCC1CN(C(=O)c1cccnc1-n1cccn1)C2 | α1 | binding | – | 10 µM | -6.8% |
